Measured values of several laboratories.
Every numbered part comes from another study and shows a few of its results, in no order.

Study 1 — technique: aptamer microarray, sandwich; form: DNA with 2'F-ANA; medium: in vitro; concentration: 200 nM; added: Cy3 exosite-II aptamer, 400 nM; reading: higher = stronger binding; endpoint: mean fluorescence intensity; oligonucleotide: GGTTGGTGTGGTTGG
Target: Prothrombin, mature alpha-thrombin (F2, Homo sapiens, UniProt P00734)
Setting: whole 15-mer aptamer, many near background
Modification = 2'F-ANA at 1 2 4 7 8 11 12 13; result = 207 a.u.
Modification = 2'F-ANA at 1 2 6 8 9 10 11 12 13 14; result = 47.3 a.u.
Modification = 2'F-ANA at 3 5 6 7 10 14; result = 50.2 a.u.
Modification = 2'F-ANA at 3 4 7 8 9 13 14 15; result = 285 a.u.
Modification = 2'F-ANA at 1 7 8 9 11 13 15; result = 154 a.u.
Modification = 2'F-ANA at 1 2 3 5 6 8 9 10 12 13 14; result = 53.7 a.u.
Modification = 2'F-ANA at 1 2 6 7 10 11 12 13; result = 97.2 a.u.

Study 2 — technique: protein-binding microarray; form: double-stranded DNA, one strand shown; medium: in vitro; concentration: 2200 nM top; setting: 60-bp whole probe; added: salmon DNA 0.4 mg/ml; reference: random background probes; reading: higher = stronger binding; endpoint: fitted relative affinity; shared flanks, not repeated: GCCTAGCAC … GTCTTGATTCGCTTGACGCTGCTG
Target: Interferon regulatory factor 7, full length, phosphomimetic (IRF7, Homo sapiens, UniProt Q92985, residues 1-503, S471D/S472D/S475D/S476D/S477D/S483D/S484D/S487D)
Residues (chain): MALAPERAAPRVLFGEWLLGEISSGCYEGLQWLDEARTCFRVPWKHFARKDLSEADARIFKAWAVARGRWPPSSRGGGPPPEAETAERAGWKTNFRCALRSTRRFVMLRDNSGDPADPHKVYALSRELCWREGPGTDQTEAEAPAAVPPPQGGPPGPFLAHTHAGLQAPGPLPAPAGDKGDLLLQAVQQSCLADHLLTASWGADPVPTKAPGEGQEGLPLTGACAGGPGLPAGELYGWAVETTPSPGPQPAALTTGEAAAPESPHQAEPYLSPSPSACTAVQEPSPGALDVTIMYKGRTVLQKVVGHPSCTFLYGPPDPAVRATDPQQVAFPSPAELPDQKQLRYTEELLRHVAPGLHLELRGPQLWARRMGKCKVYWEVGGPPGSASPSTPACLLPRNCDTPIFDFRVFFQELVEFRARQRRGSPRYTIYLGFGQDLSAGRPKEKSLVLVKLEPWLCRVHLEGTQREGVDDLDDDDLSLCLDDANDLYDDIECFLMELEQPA
Oligonucleotide = TTAGATTTCGGGTATCCATTAGTGCTA; result = 3.12 z-score
Oligonucleotide = TTAGGCCTGGGACTGGGTTAGTGCTAG; result = -1.24 z-score
Oligonucleotide = TTAGATTTGAGTATCGATTAGTGCTAG; result = -0.152 z-score
Oligonucleotide = TGACAGAGTGAGGTTTGGGCGTGCTAG; result = -0.68 z-score
Oligonucleotide = TCAACTCTTCCTTTACTACTGTGCTAG; result = 1.82 z-score
Oligonucleotide = GACGGTATCCTACTGCTGAGGTGCTAG; result = 0.333 z-score
Oligonucleotide = GACGGACTGATTATCCTGACGTGCTAG; result = 0.483 z-score
Oligonucleotide = TTAGGTATCGACATTGGGTTAGTGCTA; result = 0.222 z-score
Oligonucleotide = TTAGGTCTCGGTTGCGGTTAGTGCTAG; result = 1.26 z-score

Study 3 — technique: universal PBM; form: double-stranded DNA, one strand shown; medium: in vitro; concentration: not given; reading: higher = stronger binding; endpoint: E-score
Target: Sal-like protein 4, full length isoform B (SALL4, Homo sapiens, UniProt Q9UJQ4-2, residues 1-616)
Setting: 8-mer, flanks averaged, mean of replicates
Residues (chain): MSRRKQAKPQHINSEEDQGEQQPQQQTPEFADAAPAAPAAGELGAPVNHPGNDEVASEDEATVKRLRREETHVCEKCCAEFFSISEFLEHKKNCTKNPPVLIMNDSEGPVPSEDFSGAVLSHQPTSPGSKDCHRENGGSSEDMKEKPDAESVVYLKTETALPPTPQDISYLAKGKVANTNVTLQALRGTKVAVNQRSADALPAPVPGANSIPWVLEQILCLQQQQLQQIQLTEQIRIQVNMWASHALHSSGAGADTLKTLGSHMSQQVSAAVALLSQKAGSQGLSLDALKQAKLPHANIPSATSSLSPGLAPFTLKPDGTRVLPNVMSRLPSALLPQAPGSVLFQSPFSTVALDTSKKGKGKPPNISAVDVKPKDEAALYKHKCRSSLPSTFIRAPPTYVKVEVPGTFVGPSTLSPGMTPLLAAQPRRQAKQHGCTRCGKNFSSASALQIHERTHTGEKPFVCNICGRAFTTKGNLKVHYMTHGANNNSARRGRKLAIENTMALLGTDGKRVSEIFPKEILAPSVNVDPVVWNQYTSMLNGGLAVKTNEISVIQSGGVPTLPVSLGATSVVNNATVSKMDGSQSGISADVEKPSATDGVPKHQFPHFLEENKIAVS
Oligonucleotide = GCGGGGCA; result = -0.283
Oligonucleotide = AGCGTGTA; result = 0.0934
Oligonucleotide = ATTGGAAC; result = 0.179
Oligonucleotide = CCAGTCGC; result = -0.263
Oligonucleotide = GCCTGCTA; result = -0.123
Oligonucleotide = CTCCAAAG; result = -0.0904
Oligonucleotide = CTGGAACC; result = -0.295

Mixed results
Substance = PhoQ, residues 284 288 289 292 302 303 SLSLLA; target = PhoP, residues 12 14 15 18 19 NFCKL (Escherichia coli, UniProt P23836); assay = Sort-seq, refers to: YFP reporter; test system = E. coli; conditions = PhoQ-PhoP variant library, added: 10 µM Mg2+; scale = reference: high Mg2+ state, higher = stronger signaling; endpoint = fold induction; result = 24.3

For quick reference, copied from above (study 2):
Oligonucleotide = TCAACTCTTCCTTTACTACTGTGCTAG; result = 1.82 z-score
Oligonucleotide = TTAGGTATCGACATTGGGTTAGTGCTA; result = 0.222 z-score
Oligonucleotide = TTAGATTTGAGTATCGATTAGTGCTAG; result = -0.152 z-score
